Experimental data of several laboratories.
Lines come from different studies, so protocols differ.
Target: Mitogen-activated protein kinase kinase kinase 11 (MAP3K11, Homo sapiens, UniProt Q16584)

COc1c(Cl)cccc1Nc1c(-c2ccncc2C#C[C@@]2(C)CCCN2C(=O)/C=C/CN(C)C)[nH]c2c1C(=O)NCC2
remaining binding (binding, competition with immobilised ligand; 3 µM): 100%

c1ccc2c(Nc3cc(C4CCC4)[nH]n3)nc(Nc3ccc4nc[nH]c4c3)nc2c1
remaining activity (enzyme activity, inhibitor; 0.25 µM): 3%

CS(=O)(=O)Nc1cccc(-c2csc3cnc(Nc4ccc(N5CCN(CCCCCOc6cccc7c6C(=O)N(C6CCC(=O)NC6=O)C7=O)CC5)cc4)nc23)c1 (stereo not drawn)
inhibition (probe labelling, inhibitor, KiNativ chemoproteomics; MOLT-4; 1 µM): 68.7%

NC(=O)[C@@H](O)C[C@H]1CCc2sc3ncnc(O[C@H]4CC[C@H](N5CCOCC5)CC4)c3c21
inhibition (enzyme activity, inhibitor; 10 µM): 8%

COc1cc(Nc2nccc(-c3cnn4nc(OC)ccc34)n2)cc(C(F)(F)F)c1
remaining binding (binding, competition with immobilised ligand; 1 µM): 100%

CN1CCN(Cc2ccc(-c3ccc(CO[C@H]4CCC[C@@H]4NC(=O)c4cc(-c5cnn(C)c5)cnc4N)cc3)cc2)CC1
inhibition (enzyme activity, inhibitor; 0.1 µM): -1%

COc1cc(Nc2nc(C)cc(-c3cnn4nc(OC)ccc34)n2)cc(C(F)(F)F)c1
remaining activity (inhibitor; 1 µM, MLK3; baseline: control): 79%

CN1CC[C@@H](COc2cnc(C#N)cc2-c2ccn3nc(NC(=O)C4CC4)cc3c2)C1
inhibition (enzyme activity, inhibitor; 1 µM): 8%

CC(C)=CC1OC(C)(C)C2C=C3C(=O)C(Cl)=CC(O)C3C3C(O)C4OC4C(=O)C132 (stereo not drawn)
remaining binding (cell-free assay, competition with immobilised ligand; 10 µM): 99%

Cc1ccc(-c2c(/C=C(\C#N)C(=O)NC(C)C)n(CCCO)c3ncnc(N)c23)cc1
remaining binding (cell-free assay, competition with immobilised ligand; 1 µM): 90%

CNC1C[S+]2CC[S+]3CC[S+](C1)[Ru-4]321([N]=C=S)[n]2c3ccc(OC)cc3c3c4c(c5cc(F)c[n+]1c5c32)C(=O)NC4=O (stereo not drawn)
remaining binding (KinomeScan; 0.1 µM; baseline: untreated): 98%

CNC(=O)C1CCN(c2cc(C)c(F)cc2NC(=O)c2ccc(-c3cc(O)ccc3C)c(C)c2)CC1
remaining binding (binding, competition with immobilised ligand; 1 µM): 99%

C=CC(=O)N1CCc2ccc(-n3c(=O)ccc4cnc5ccc(-c6cnn(C)c6)cc5c43)cc21
remaining binding (KINOMEscan; 1 µM; baseline: DMSO control): 100%

O=C(Cc1ccc(OCc2ccccc2)cc1)NC1(C(=O)O)CCN(C(=O)c2ccc(-c3cccc(Cl)c3)cc2)CC1
activity vs control (enzyme activity, inhibitor; 10 µM): 72%

C=CC(=O)N1CCCC(n2c(=O)c3ncccc3n(Cc3ccc(Oc4ccccc4)cc3)c2=O)C1 (stereo not drawn)
remaining binding (cell-free assay, competition with immobilised ligand; 1 µM): 93%

CCN1CCN(Cc2ccc(C(=O)Nc3ccc(C)c(NCc4cnc5[nH]ccc5c4OC)c3)cc2C(F)(F)F)CC1
remaining binding (binding, competition with immobilised ligand; 1 µM): 62%

Cc1cnc2nc1Nc1cccc(c1)COC/C=C/COCc1cc(ccc1OCCN1CCOCC1)N2
remaining signal (cell-free assay; 0.1 µM): 97%

CCn1cc(C(=O)O)c(=O)c2c(N)c(F)c(NC3CCCCC3)cc21
inhibition (kinase activity; 0.1 µM, added: ATP at Km): 1.3%

C=CC(=O)N1Cc2nc(-c3cc(-c4cc(Cl)cnc4Cl)c(F)cc3F)n(-c3ccncn3)c2C1
inhibition (cell-free assay, inhibitor; 1 µM): -0.2%

NC(=O)C[C@H]1CCc2sc3ncnc(O[C@H]4CC[C@H](N5CCOCC5)CC4)c3c21
inhibition (enzyme activity, inhibitor; 10 µM): 1%

Nc1ncc2c(n1)-c1c([nH]c3ccc(C4=CCOCC4)cc13)CCC2
remaining binding (binding, competition with immobilised ligand; 1 µM): 100%

Repeated from above:
Nc1ncc2c(n1)-c1c([nH]c3ccc(C4=CCOCC4)cc13)CCC2
remaining binding (binding, competition with immobilised ligand; 1 µM): 100%

CNC1C[S+]2CC[S+]3CC[S+](C1)[Ru-4]321([N]=C=S)[n]2c3ccc(OC)cc3c3c4c(c5cc(F)c[n+]1c5c32)C(=O)NC4=O (stereo not drawn)
remaining binding (KinomeScan; 0.1 µM; baseline: untreated): 98%
